Published values pooled from the literature.
Protocols differ between the studies behind these lines. Several values in a cell are separate wells, animals, samples, runs or records. ± marks the error that the study gave.

CC[C@H](C)[C@H](N)C(=O)N[C@H](CC(C)C)C(=O)N[C@@H](CCCNC(=N)N)C(=O)N[C@@H](Cc1c[nH]c2ccccc12)C(=O)N[C@@H](CO)C(=O)N[C@@H](CCCNC(=N)N)C(=O)N[C@@H](CCCCN)C(=O)N[C@@H](CC(C)C)C(=O)N1CCC[C@H]1C(=O)N[C@@H](CS)C(=O)N[C@H](C(=O)N[C@@H](CO)C(N)=O)C(C)C — remaining activity (12G5 competition, SUP-T1 cells; human plasma; 20 µM, 8 h, 37 °C): 57 ± 11%
COc1ccc(C(=O)OCOP(=O)(CC/C=C(\C)COC(C)=O)Oc2ccc(C(C)C)cc2)cc1 (stereo not shown) — remaining compound (50% Sprague-Dawley rat plasma; 100 µM, 2 h, pH 7.5, 37 °C): 0.51%
CC(C)C[C@@H]1NC(=O)CNC(=O)[C@H](CCCCN)NC(=O)[C@H](CCCNC(=N)N)NC(=O)[C@H]([C@@H](C)O)NC(=O)[C@@H]2CSSC[C@@H]3NC(=O)[C@H]([C@@H](C)O)NC(=O)CNC(=O)CNC(=O)[C@H](C(C)C)NC(=O)[C@@H]4CSSC[C@H](NC(=O)[C@H](CCCCN)NC(=O)[C@H](CSSC[C@H](NC(=O)[C@H](C(C)C)NC(=O)[C@@H]5CCCN5C1=O)C(=O)NCC(=O)N[C@@H](CCC(=O)O)C(=O)N[C@@H]([C@@H](C)O)C(=O)N4)NC(=O)CNC(=O)[C@@H]1CCCN1C(=O)[C@H]([C@@H](C)O)NC(=O)[C@H](CC(N)=O)NC3=O)C(=O)N[C@@H](CO)C(=O)N[C@@H](Cc1c[nH]c3ccccc13)C(=O)N1CCC[C@H]1C(=O)N[C@@H](C(C)C)C(=O)N2 — remaining peptide (HPLC; ammonium bicarbonate 0.1 M; 180 µM, 14 days, pH 9.0, 37 °C, deamidation stability): 100%
CC[C@@H](C)[C@@H](NC(=O)[C@@H](Cc1ccc(O)cc1)NC(=O)[C@H]1CCCN1C(=O)[C@@H](CCCNC(=N)N)NC(=O)[C@H](N)Cc1c[nH]cn1)C(=O)N[C@H](C)C(=O)N[C@H](Cc1c[nH]cn1)C(=O)N[C@H](CCCNC(=N)N)C(=O)N[C@@H](C(=O)N[C@H](Cc1ccc(O)cc1)C(=O)N[C@H](CO)C(=O)N[C@H](Cc1ccccc1)C(N)=O)C(C)C — remaining compound (10% human serum; 36 h): 94.7% and 95.3% and 94.2%
CSCC[C@H](NC(=O)[C@H](CCCCN)NC(=O)[C@H](CCCNC(=N)N)NC(=O)[C@H](CO)NC(=O)[C@H](Cc1c[nH]c2ccccc12)NC(=O)[C@H](CCCNC(=N)N)NC(=O)[C@H](CC(C)C)NC(=O)[C@H](CO)NC(C)=O)C(=O)N1CCC[C@H]1C(=O)N[C@@H](CS)C(=O)N[C@H](C(=O)N[C@@H](CO)C(N)=O)C(C)C — remaining activity (12G5 competition, SUP-T1 cells; human plasma; 20 µM, 2 h, 37 °C): 77 ± 9%
CC[C@@H](C)[C@@H](NC(=O)[C@@H](Cc1ccc(O)cc1)NC(=O)[C@H]1CCCN1C(=O)[C@@H](CCCNC(=N)N)NC(=O)[C@H](N)Cc1c[nH]cn1)C(=O)N[C@H](C)C(=O)N[C@H](Cc1c[nH]cn1)C(=O)N[C@H](CCCNC(=N)N)C(=O)N[C@H](CCCCNC(=O)c1cccc(S(=O)(=O)F)c1)C(=O)N[C@H](Cc1ccc(O)cc1)C(=O)N[C@H](CO)C(=O)N[C@H](Cc1ccccc1)C(N)=O — remaining compound (10% human serum; 72 h): 109% and 110%
NNc1ccccc1 — remaining fraction (PBS; 18 h, 37 °C; relative to: initial amount): 0.23 and 0.28 and 0.24
CC(C)C[C@@H]1NC(=O)CNC(=O)[C@H](CC(N)=O)NC(=O)[C@H](CCCNC(=N)N)NC(=O)[C@H]([C@@H](C)O)NC(=O)[C@@H]2CSSC[C@@H]3NC(=O)[C@H]([C@@H](C)O)NC(=O)CNC(=O)CNC(=O)[C@H](C(C)C)NC(=O)[C@@H]4CSSC[C@H](NC(=O)[C@H]([C@@H](C)O)NC(=O)[C@H](CSSC[C@H](NC(=O)[C@H](CCCCN)NC(=O)[C@@H]5CCCN5C1=O)C(=O)NCC(=O)N[C@@H](CCC(=O)O)C(=O)N[C@@H]([C@@H](C)O)C(=O)N4)NC(=O)CNC(=O)[C@@H]1CCCN1C(=O)[C@H]([C@@H](C)O)NC(=O)[C@H](CC(N)=O)NC3=O)C(=O)N[C@@H](CO)C(=O)N[C@@H](Cc1c[nH]c3ccccc13)C(=O)N1CCC[C@H]1C(=O)N[C@@H](C(C)C)C(=O)N2 — remaining peptide (HPLC; ammonium bicarbonate; 180 µM, 7 days, pH 9.0, 25 °C, deamidation stability): 85 ± 7.7%
CCC[C@@](N)(CO)CCc1ccc(OCCCCCC(C)C)cc1 — remaining compound (rat liver microsomes; 1 h): 31%
CC(C)C[C@@H]1NC(=O)[C@H](CC(N)=O)NC(=O)[C@H](CCCNC(=N)N)NC(=O)[C@H]([C@@H](C)O)NC(=O)[C@@H]2CSSC[C@@H]3NC(=O)[C@H]([C@@H](C)O)NC(=O)CNC(=O)CNC(=O)[C@H](C(C)C)NC(=O)[C@@H]4CSSC[C@H](NC(=O)[C@H]([C@@H](C)O)NC(=O)[C@H](CSSC[C@H](NC(=O)[C@H](C(C)C)NC(=O)[C@@H]5CCCN5C(=O)[C@H](CC(C)C)NC1=O)C(=O)NCC(=O)N[C@@H](CCC(=O)O)C(=O)N[C@@H]([C@@H](C)O)C(=O)N4)NC(=O)CNC(=O)[C@@H]1CCCN1C(=O)[C@H]([C@@H](C)O)NC(=O)[C@H](CC(N)=O)NC3=O)C(=O)N[C@@H](CO)C(=O)N[C@@H](Cc1c[nH]c3ccccc13)C(=O)N1CCC[C@H]1C(=O)N[C@@H](C(C)C)C(=O)N2 — remaining peptide (HPLC; ammonium bicarbonate; 180 µM, 7 days, pH 9.0, 25 °C, deamidation stability): 99.4 ± 0.9%
CC[C@H](C)[C@H](NC(=O)[C@H](CCCCN)NC(=O)[C@H](CCC(=O)O)NC(=O)[C@H](CCCCN)NC(=O)[C@H](CO)NC(=O)[C@H](CCCCN)NC(=O)[C@H](CCCNC(=N)N)NC(=O)[C@H](Cc1ccccc1)NC(=O)[C@H](Cc1ccccc1)NC(=O)[C@H](CC(=O)O)NC(=O)CNC(=O)[C@H](CC(C)C)NC(=O)[C@@H](N)CC(C)C)C(=O)NCC(=O)N[C@@H](CCCCN)C(=O)N[C@@H](CCC(=O)O)C(=O)N[C@@H](Cc1ccccc1)C(=O)N[C@@H](CCCCN)C(=O)N[C@@H](CCCNC(=N)N)C(=O)N[C@H](C(=O)N[C@H](C(=O)N[C@@H](CCC(N)=O)C(=O)N[C@@H](CCCNC(=N)N)C(=O)N[C@H](C(=O)N[C@@H](CCCCN)C(=O)N[C@@H](CC(=O)O)C(=O)N[C@@H](Cc1ccccc1)C(=O)N[C@@H](CC(C)C)C(=O)N[C@@H](CCCNC(=N)N)C(=O)N[C@@H](CC(N)=O)C(=O)N[C@@H](CC(C)C)C(=O)N[C@H](C(=O)N1CCC[C@H]1C(=O)N[C@@H](CCCNC(=N)N)C(=O)N[C@H](C(=O)N[C@@H](CCC(=O)O)C(=O)N[C@@H](CO)C(=O)O)[C@@H](C)O)C(C)C)[C@@H](C)CC)C(C)C)[C@@H](C)CC — remaining intact peptide (LC-MS; buffer with trypsin; 40 µM, 30 min, pH 7.5, 37 °C; relative to: 0 h): 7.73% and 6.26% and 5.32%
CC[C@H](C)[C@H](NC(C)=O)C(=O)N[C@@H](CC(C)C)C(=O)N[C@@H](CCCNC(=N)N)C(=O)N[C@@H](Cc1c[nH]c2ccccc12)C(=O)N[C@@H](CO)C(=O)N[C@@H](CCCNC(=N)N)C(=O)N[C@@H](CCCCN)C(=O)N[C@@H](CC(C)C)C(=O)N1CCC[C@H]1C(=O)N[C@@H](CS)C(=O)N[C@H](C(=O)N[C@@H](CO)C(N)=O)C(C)C — remaining activity (12G5 competition, SUP-T1 cells; human plasma; 20 µM, 8 h, 37 °C): 67 ± 6%
CC(C)C[C@@H]1NC(=O)CNC(=O)[C@H](CC(N)=O)NC(=O)[C@H](CCCNC(=N)N)NC(=O)[C@H]([C@@H](C)O)NC(=O)[C@@H]2CSSC[C@@H]3NC(=O)[C@H]([C@@H](C)O)NC(=O)CNC(=O)CNC(=O)[C@H](C(C)C)NC(=O)[C@@H]4CSSC[C@H](NC(=O)[C@H]([C@@H](C)O)NC(=O)[C@H](CSSC[C@H](NC(=O)[C@H](C(C)C)NC(=O)[C@@H]5CCCN5C1=O)C(=O)NCC(=O)N[C@@H](CCC(=O)O)C(=O)N[C@@H]([C@@H](C)O)C(=O)N4)NC(=O)CNC(=O)[C@@H]1CCCN1C(=O)[C@H]([C@@H](C)O)NC(=O)[C@H](CC(N)=O)NC3=O)C(=O)N[C@@H](CO)C(=O)N[C@@H](Cc1c[nH]c3ccccc13)C(=O)N1CCC[C@H]1C(=O)N[C@@H](CCCCN)C(=O)N2 — remaining peptide (HPLC; ammonium bicarbonate 0.1 M; 180 µM, 14 days, pH 9.0, 37 °C, deamidation stability): 30.1 ± 5.9%

Repeated from above:
CC[C@H](C)[C@H](NC(=O)[C@H](CCCCN)NC(=O)[C@H](CCC(=O)O)NC(=O)[C@H](CCCCN)NC(=O)[C@H](CO)NC(=O)[C@H](CCCCN)NC(=O)[C@H](CCCNC(=N)N)NC(=O)[C@H](Cc1ccccc1)NC(=O)[C@H](Cc1ccccc1)NC(=O)[C@H](CC(=O)O)NC(=O)CNC(=O)[C@H](CC(C)C)NC(=O)[C@@H](N)CC(C)C)C(=O)NCC(=O)N[C@@H](CCCCN)C(=O)N[C@@H](CCC(=O)O)C(=O)N[C@@H](Cc1ccccc1)C(=O)N[C@@H](CCCCN)C(=O)N[C@@H](CCCNC(=N)N)C(=O)N[C@H](C(=O)N[C@H](C(=O)N[C@@H](CCC(N)=O)C(=O)N[C@@H](CCCNC(=N)N)C(=O)N[C@H](C(=O)N[C@@H](CCCCN)C(=O)N[C@@H](CC(=O)O)C(=O)N[C@@H](Cc1ccccc1)C(=O)N[C@@H](CC(C)C)C(=O)N[C@@H](CCCNC(=N)N)C(=O)N[C@@H](CC(N)=O)C(=O)N[C@@H](CC(C)C)C(=O)N[C@H](C(=O)N1CCC[C@H]1C(=O)N[C@@H](CCCNC(=N)N)C(=O)N[C@H](C(=O)N[C@@H](CCC(=O)O)C(=O)N[C@@H](CO)C(=O)O)[C@@H](C)O)C(C)C)[C@@H](C)CC)C(C)C)[C@@H](C)CC — remaining intact peptide (LC-MS; buffer with trypsin; 40 µM, 30 min, pH 7.5, 37 °C; relative to: 0 h): 7.73% and 6.26% and 5.32%
